{"data": "Results of several laboratories", "note": "Each numbered part is a random draw from the data of one study; scales do not carry over between parts."}
{"data": "Sample 1", "target": "TAR DNA-binding protein 43, full length, His tag (TARDBP, Homo sapiens, UniProt Q13148, residues 1-414)", "technique": "RNA Bind-n-Seq", "molecule type": "RNA", "sample": "in vitro", "tested at": "20 nM", "notes": "6-mer, flanks averaged, single round", "with": "150 mM LiCl", "relative to": "input library", "reading": "higher = stronger binding"}
{"Sequence": "GGUGGU", "6-mer enrichment (R)": 1.43}
{"Sequence": "GGUGAC", "6-mer enrichment (R)": 1.03}
{"Sequence": "CUUGGU", "6-mer enrichment (R)": 1.06}
{"Sequence": "ACUACU", "6-mer enrichment (R)": 0.854}
{"Sequence": "UAAAUA", "6-mer enrichment (R)": 0.961}
{"data": "Sample 2", "target": "Prothrombin, mature alpha-thrombin (F2, Homo sapiens, UniProt P00734)", "technique": "aptamer microarray, sandwich", "molecule type": "DNA with 2'F-ANA", "sample": "in vitro", "tested at": "200 nM", "notes": "whole 15-mer aptamer, many near background", "with": "Cy3 exosite-II aptamer, 400 nM", "reading": "higher = stronger binding", "sequence": "GGTTGGTGTGGTTGG"}
{"Modification": "2'F-ANA at 5 7 9 10 12", "mean fluorescence intensity [a.u.]": 57.4}
{"Modification": "2'F-ANA at 3 5 6 9 11 12 13 15", "mean fluorescence intensity [a.u.]": 127}
{"Modification": "2'F-ANA at 4 5 6 9 14", "mean fluorescence intensity [a.u.]": 51}
{"Modification": "2'F-ANA at 2 3 4 13 14 15", "mean fluorescence intensity [a.u.]": 267}
{"Modification": "2'F-ANA at 4 5 10 12 14 15", "mean fluorescence intensity [a.u.]": 62.1}
{"Modification": "2'F-ANA at 6 7 10 11 15", "mean fluorescence intensity [a.u.]": 141}
{"Modification": "2'F-ANA at 2 6 8 9 11 12 15", "mean fluorescence intensity [a.u.]": 499}
{"data": "Sample 3", "target": "Ras GTPase-activating protein-binding protein 1, full length (G3BP1, Homo sapiens, UniProt Q13283)", "technique": "RNA Bind-n-Seq", "molecule type": "RNA", "sample": "in vitro", "tested at": "200 nM", "notes": "whole 134-nt RNA, ends assumed", "with": "150 mM KCl", "relative to": "input library", "reading": "higher = stronger binding", "constant ends, left off below": "GGGAGUUCUACAGUCCGACGAUC … UGGAAUUCUCGGGUGUCAAGG", "chain of UniProt Q13283 (whole entry, looked up)": "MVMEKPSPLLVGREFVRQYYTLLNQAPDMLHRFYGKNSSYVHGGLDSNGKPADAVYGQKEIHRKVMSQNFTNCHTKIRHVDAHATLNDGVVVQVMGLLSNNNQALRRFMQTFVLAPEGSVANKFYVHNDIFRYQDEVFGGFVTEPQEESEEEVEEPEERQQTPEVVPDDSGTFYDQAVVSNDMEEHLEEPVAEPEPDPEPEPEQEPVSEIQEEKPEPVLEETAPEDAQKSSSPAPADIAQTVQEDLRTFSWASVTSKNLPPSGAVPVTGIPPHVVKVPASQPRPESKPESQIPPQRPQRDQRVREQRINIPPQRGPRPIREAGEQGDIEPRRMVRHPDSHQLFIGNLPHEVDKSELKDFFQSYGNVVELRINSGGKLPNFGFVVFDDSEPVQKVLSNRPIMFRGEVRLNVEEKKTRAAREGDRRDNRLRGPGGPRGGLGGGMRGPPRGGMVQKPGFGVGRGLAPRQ"}
{"Sequence": "UGGCCCUGGUGGCAUGCGGGGAGGAAGAGGUGGCCUCAUGGAUCGUGGUGGACCCGGUGGAAUGUUCAGAGGUGGCCGUGGUGGAGACAG", "log2 enrichment": 0.284}
{"Sequence": "UAACUUUAGAGGAGGAUCUGAUGGAUAUGGCAGUGGACGUGGAUUUGGGGAUGGCUAUAUUGGGUAUGGAGGAGGACCUGGAGGUGGCAA", "log2 enrichment": 0.425}
{"Sequence": "AAGUCCUGUGCUACACAUCGUAUGUACCGAAUCGGGGAAAGGGGAAAGGGGAAAGGGAAAGUAUUAUGUUACGCCGUUCGGAUCUGCACU", "log2 enrichment": 0.0795}
{"Sequence": "UUCAAGGCCAUGAAGGACCUGUUUAUGCGGUGCAUGCUGUUUACCAGAGGAGGACAUCAGAUCCUGCAUUAUGUACACUGAUCGUUUCUG", "log2 enrichment": -0.858}
{"Sequence": "UUGUCCCGGAUGGGCAGCCUGCGGGCUCCCGUGGACGAGGACCGCCUGUCCCCGCUGGUGGCGGCCGACUCGCUCCUGGAGCAUGUGCGG", "log2 enrichment": -0.754}
{"Sequence": "GUCCUGUGCUACACAUCGUAUGUACCGAAUCGGGCCCCCCGGCCCCCCGGCCCCCCGGGAAAGUAUUAUGUUACGCCGUUCGGAUCUGCA", "log2 enrichment": -0.31}
{"data": "Mixed results"}
{"Substance": "PhoQ, residues 284 288 289 292 302 303 SVTLVV", "target": "PhoP, residues 12 14 15 18 19 AWHSL (Escherichia coli, UniProt P23836)", "test": "Sort-seq, item: YFP reporter", "test system": "E. coli", "setting": "PhoQ-PhoP variant library, with: 10 µM Mg2+", "scale": "relative to: high Mg2+ state, higher = stronger signaling", "quantity": "fold induction", "value": 3.42}
